Earlier results as cited in several papers.
± marks the error that the study gave.
Sequence of UniProt Q16512 (whole entry, looked up): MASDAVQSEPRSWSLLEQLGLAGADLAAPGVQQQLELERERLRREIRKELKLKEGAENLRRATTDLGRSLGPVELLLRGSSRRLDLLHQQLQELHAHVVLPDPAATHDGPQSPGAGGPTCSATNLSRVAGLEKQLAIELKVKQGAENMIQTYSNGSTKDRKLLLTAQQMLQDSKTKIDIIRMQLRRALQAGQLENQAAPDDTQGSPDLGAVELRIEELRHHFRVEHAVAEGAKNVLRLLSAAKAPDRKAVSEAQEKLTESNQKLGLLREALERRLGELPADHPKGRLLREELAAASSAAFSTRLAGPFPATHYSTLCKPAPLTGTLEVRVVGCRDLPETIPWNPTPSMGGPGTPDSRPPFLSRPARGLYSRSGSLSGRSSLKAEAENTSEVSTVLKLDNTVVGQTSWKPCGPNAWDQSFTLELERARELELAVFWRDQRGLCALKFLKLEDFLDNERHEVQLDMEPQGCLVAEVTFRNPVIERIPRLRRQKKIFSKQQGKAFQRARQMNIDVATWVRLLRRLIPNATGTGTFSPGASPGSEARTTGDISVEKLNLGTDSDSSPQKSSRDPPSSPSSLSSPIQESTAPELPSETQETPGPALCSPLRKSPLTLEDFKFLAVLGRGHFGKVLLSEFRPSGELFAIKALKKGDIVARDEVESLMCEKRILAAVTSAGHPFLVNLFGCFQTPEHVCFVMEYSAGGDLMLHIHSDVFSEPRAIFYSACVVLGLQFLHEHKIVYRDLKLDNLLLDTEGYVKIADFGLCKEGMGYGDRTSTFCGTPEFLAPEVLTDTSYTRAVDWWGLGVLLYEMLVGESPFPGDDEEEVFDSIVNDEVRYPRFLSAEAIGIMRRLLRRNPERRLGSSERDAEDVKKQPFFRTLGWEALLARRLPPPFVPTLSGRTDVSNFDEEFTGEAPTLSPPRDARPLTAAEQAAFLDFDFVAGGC

COCCc1ccc(OCC(O)CNC(C)C)cc1 (centres unmarked)  half-life (human): 3 to 4 h
CNC(=O)c1c(C)oc2cc(Oc3ncnc4cc(OC)c(OC)cc34)ccc12  half-life (healthy human subjects; dose not given, single dose): ~34 h
C=CC(=O)N1CCC([C@@H]2CCNc3c(C(N)=O)c(-c4ccc(Oc5ccccc5)cc4)nn32)CC1  half-life (human; 320 mg once daily): 3.97 h
O=C(O)Cc1ccccc1Nc1c(Cl)cccc1Cl  half-life (human): 1 to 2 h
CC(=O)N[C@@H]1CCC[C@H](C(=O)Nc2cc(-c3cnn4c3CC(C)(C)C4)c(Cl)cn2)C1  half-life (human): 1.6 h
C=CC(=O)N1CCC[C@@H](n2nc(-c3ccc(Oc4ccccc4)cc3)c3c(N)ncnc32)C1  half-life (human; 560 mg once daily): 9.5 h
CCN1CCN(Cc2ccc(Nc3ncc(F)c(-c4cc(F)c5nc(C)n(C(C)C)c5c4)n3)nc2)CC1  half-life (human; mean across doses): 17 to 38 h
C[C@H](Cn1cnc2c(N)ncnc21)OCP(=O)(O)O  half-life (human): 17 h
Cc1c(C(=O)O)ccc2c3n(nc12)[C@@H]1[C@H](C3)N(CC2CC2)[C@@]2(C(=O)Nc3cc(Cl)ccc32)[C@H]1c1cccc(Cl)c1F  half-life (human): 30 to 60 h
Cc1ccc([C@@H]2O[C@H](CO)[C@@H](O)[C@H](O)[C@H]2O)cc1Cc1ccc(-c2ccc(F)cc2)s1  half-life (human, preserved kidney function; 100 mg, steady state, mean): 13.3 h
COc1ccc(F)cc1C(=O)NCc1ccc(-c2nn([C@@H](C)C(F)(F)F)c(N)c2C(N)=O)cc1  half-life (human patients; oral, 200 mg daily): ~20 h
COc1cc2c(Oc3ccc4[nH]c(C)cc4c3F)ccnc2cc1OCC1(N)CC1  half-life (human; 10 mg single dose): 95.3 ± 21.7 h
NC1(C(=O)N[C@@H](CCO)c2ccc(Cl)cc2)CCN(c2nc[nH]c3nccc2-3)CC1  half-life (human): 8 h
Cn1c(=O)c2[nH]cnc2n(C)c1=O  half-life (human): 4 to 8 h
CC(=O)c1c(C)c2cnc(Nc3ccc(N4CCNCC4)cn3)nc2n(C2CCCC2)c1=O  half-life (human; 125 mg, single dose): 25.9 h
[H]/N=C(/N)N[C@H]1[C@H](O)[C@@H](O)[C@H](O[C@@H]2O[C@@H](C)[C@](O)(C=O)[C@H]2O[C@@H]2O[C@@H](CO)[C@H](O)[C@@H](O)[C@@H]2NC)[C@@H](N/C(N)=N\[H])[C@@H]1O  half-life (human): 2.5 h
O=C(CCCCCCC(=O)Nc1ccccc1)NO  half-life (human; oral, dose not given): 1.5 to 2.1 h
CC#CC(=O)N1CC[C@@H](n2c(=O)n(-c3ccc(Oc4ccccc4)cc3)c3c(N)ncnc32)C1  half-life (human; 480 mg once daily): 6.38 h
Cc1[nH]c2ccccc2c1CCNCc1ccc(/C=C/C(=O)NO)cc1  half-life (human; oral, dose not given): 16 h
C=CC(=O)N(C)CCOc1c(N)ncnc1-c1cc(F)cc(NC(=O)c2ccc(C3CC3)cc2F)c1C  half-life (human; 400 mg once daily): 8.51 h
Nc1cc(C(F)(F)F)c(-c2nc(N3CCOCC3)nc(N3CCOCC3)n2)cn1  remaining activity (PKN1 (Homo sapiens, UniProt Q16512); enzyme activity; 10 µM; reference: untreated): 73%
COc1cc(O)c(CC=C(C)C)c(O)c1C(=O)/C=C/c1ccc(O)cc1  half-life (human; 180 mg): 18 h
C[C@H]1CN(C2COC2)CCN1c1ccc(Nc2cc(-c3ccnc(N4CCn5c(cc6c5CC(C)(C)C6)C4=O)c3CO)cn(C)c2=O)nc1  half-life (human; 200 mg once daily): 8.66 h

Some of these lines once more:
C[C@H](Cn1cnc2c(N)ncnc21)OCP(=O)(O)O  half-life (human): 17 h
Cc1c(C(=O)O)ccc2c3n(nc12)[C@@H]1[C@H](C3)N(CC2CC2)[C@@]2(C(=O)Nc3cc(Cl)ccc32)[C@H]1c1cccc(Cl)c1F  half-life (human): 30 to 60 h
